Measured values from different studies.
Lines come from different studies, so protocols differ. ± gives the spread as reported.
Chain of UniProt P08172 (whole entry, looked up): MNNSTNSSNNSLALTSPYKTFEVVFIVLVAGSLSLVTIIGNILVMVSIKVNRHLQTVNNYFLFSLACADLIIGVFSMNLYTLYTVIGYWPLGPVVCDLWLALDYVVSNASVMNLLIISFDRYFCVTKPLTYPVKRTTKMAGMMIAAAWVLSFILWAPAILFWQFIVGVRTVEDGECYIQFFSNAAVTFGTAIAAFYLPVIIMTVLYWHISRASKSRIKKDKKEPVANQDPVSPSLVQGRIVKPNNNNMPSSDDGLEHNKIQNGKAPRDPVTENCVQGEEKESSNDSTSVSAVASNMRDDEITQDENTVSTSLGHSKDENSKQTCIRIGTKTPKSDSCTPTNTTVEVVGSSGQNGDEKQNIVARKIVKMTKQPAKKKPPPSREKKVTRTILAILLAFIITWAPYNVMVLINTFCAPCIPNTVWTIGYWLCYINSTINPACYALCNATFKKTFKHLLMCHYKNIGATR
Chain of UniProt Q9UHD2 (whole entry, looked up): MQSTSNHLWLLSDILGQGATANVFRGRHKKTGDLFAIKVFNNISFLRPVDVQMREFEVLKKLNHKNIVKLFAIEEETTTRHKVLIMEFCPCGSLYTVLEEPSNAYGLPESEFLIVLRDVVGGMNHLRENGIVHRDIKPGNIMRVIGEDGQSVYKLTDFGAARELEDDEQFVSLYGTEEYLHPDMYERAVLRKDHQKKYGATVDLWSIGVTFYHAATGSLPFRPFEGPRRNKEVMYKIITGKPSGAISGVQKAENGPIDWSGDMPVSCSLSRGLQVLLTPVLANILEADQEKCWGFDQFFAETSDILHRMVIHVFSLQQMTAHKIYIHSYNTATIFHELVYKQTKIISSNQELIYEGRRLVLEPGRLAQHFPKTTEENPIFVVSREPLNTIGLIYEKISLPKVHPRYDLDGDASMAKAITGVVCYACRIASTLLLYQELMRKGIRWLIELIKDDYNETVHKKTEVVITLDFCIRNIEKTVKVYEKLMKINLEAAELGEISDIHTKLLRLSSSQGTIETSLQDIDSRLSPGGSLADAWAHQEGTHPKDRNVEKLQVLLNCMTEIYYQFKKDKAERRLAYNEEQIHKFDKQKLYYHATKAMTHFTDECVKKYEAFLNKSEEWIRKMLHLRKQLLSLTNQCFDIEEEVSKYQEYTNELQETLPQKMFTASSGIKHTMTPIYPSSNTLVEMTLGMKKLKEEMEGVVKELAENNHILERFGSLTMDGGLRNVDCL
Chain of UniProt Q15059 (whole entry, looked up): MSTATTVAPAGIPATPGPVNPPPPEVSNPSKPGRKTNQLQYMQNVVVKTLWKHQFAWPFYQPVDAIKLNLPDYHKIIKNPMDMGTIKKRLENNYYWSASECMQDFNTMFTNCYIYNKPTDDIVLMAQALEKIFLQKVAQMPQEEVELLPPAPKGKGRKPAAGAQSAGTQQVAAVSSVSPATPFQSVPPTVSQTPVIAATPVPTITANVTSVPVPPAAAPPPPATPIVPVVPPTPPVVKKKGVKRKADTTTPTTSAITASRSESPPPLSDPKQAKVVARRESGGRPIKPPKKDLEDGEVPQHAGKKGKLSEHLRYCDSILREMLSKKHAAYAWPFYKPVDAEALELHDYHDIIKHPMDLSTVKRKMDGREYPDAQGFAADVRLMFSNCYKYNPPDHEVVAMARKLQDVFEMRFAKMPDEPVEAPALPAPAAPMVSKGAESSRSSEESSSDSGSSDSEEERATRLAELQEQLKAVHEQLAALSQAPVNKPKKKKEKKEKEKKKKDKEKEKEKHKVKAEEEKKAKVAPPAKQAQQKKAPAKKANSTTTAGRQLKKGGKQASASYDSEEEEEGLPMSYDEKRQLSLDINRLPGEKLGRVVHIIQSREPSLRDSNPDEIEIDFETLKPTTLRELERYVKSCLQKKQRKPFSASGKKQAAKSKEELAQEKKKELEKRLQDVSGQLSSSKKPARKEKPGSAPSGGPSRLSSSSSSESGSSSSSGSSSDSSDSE
Chain of UniProt Q15375 (whole entry, looked up): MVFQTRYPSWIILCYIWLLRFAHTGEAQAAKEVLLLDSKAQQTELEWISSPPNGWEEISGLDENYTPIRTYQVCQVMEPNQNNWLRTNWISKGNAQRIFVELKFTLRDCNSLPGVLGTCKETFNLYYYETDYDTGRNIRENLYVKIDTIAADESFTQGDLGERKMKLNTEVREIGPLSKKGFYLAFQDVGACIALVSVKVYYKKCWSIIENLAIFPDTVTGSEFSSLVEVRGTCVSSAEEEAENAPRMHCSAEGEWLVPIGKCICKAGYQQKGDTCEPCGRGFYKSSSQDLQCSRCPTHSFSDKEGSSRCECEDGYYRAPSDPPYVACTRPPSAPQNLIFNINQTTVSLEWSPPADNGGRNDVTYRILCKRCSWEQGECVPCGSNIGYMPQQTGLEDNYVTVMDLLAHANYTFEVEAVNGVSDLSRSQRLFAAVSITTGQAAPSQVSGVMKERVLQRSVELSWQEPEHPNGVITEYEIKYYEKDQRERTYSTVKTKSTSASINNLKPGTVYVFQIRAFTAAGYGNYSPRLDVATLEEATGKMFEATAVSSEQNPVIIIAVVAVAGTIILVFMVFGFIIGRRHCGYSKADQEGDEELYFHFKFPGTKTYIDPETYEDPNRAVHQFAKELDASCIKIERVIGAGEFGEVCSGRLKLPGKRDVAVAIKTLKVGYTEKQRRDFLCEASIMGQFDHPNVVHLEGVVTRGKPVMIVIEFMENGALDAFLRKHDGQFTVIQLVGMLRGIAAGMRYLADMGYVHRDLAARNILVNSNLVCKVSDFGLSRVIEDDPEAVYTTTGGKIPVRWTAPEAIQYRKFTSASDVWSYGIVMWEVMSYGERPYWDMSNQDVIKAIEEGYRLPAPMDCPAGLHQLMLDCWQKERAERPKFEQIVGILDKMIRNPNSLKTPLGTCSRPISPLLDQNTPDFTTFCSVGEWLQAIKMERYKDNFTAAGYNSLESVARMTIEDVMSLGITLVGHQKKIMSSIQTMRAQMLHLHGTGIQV
Chain of UniProt P11362 (whole entry, unmodified, looked up): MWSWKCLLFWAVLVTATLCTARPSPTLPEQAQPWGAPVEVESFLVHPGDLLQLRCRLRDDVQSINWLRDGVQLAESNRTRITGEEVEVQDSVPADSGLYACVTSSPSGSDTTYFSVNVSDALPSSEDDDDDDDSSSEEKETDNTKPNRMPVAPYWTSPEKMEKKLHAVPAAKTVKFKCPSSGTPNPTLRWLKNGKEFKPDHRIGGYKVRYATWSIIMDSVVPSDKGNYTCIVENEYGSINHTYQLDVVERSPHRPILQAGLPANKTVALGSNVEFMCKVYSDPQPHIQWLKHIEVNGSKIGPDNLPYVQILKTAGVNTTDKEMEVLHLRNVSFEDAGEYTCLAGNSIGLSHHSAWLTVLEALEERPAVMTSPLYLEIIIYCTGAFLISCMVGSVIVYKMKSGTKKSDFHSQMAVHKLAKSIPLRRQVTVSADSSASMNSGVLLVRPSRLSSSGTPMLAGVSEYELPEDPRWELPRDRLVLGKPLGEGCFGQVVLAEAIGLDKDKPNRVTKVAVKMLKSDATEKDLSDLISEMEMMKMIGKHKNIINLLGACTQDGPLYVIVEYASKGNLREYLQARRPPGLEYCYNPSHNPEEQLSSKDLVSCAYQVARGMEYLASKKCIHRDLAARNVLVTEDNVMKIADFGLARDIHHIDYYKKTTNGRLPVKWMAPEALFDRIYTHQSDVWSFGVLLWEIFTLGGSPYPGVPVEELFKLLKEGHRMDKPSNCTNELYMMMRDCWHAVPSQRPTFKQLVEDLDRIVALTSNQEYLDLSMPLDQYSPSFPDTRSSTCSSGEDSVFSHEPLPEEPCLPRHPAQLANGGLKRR
Chain of UniProt Q9R0P3 (whole entry, looked up): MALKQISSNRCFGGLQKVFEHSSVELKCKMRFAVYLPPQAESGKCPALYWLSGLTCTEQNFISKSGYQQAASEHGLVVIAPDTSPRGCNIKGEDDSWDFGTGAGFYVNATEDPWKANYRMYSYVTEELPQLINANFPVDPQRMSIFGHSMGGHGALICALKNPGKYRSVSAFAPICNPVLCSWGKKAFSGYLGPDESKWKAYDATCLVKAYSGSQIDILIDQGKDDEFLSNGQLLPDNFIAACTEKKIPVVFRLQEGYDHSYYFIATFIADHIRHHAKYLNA

With O=C1NC(=O)c2c1c1cc(F)c[n+]3c1c1c2c2cc(O)ccc2[n]1[Ru-4]312([N]=C=S)[S+]3CC[S+]1CC[S+]2CC3 (stereo not drawn) the remaining activity was 40% (PTK2B (Homo sapiens, UniProt Q14289); enzyme activity; 100 nM, human enzyme, with: 10 µM ATP; relative to: untreated).
CN(C)[C@H]1C[C@@]23CC[C@@]4(O2)C(=CC[C@]2(C)[C@@H](c5ccc6ccncc6c5)CC[C@H]24)C=C3[C@@H](O)[C@@H]1O has an inhibition of -6.9% (TBK1 (Homo sapiens, UniProt Q9UHD2); ATP probe labelling, inhibitor, KiNativ profiling; 0.1 µM).
CC[C@H](C)[C@H](NC(=O)[C@H](CO)NC(=O)[C@H](Cc1ccc(O)cc1)NC(=O)[C@H](Cc1ccc(O)cc1)NC(=O)[C@H](CC(N)=O)NC(=O)CNC(=O)[C@H](CO)NC(=O)[C@H](Cc1ccc(O)cc1)NC(=O)[C@H](CO)NC(=O)[C@H](CO)NC(=O)[C@H](CC(N)=O)NC(=O)COCCOCCNC(=O)CN1CCN(CC(=O)O)CCN(CC(=O)O)CCN(CC(=O)O)CC1)C(=O)N[C@@H](CC(C)C)C(N)=O [copper-64 labelled] has a tissue uptake of 13 %ID/mL (dynamic PET; KPC mouse Ptf1a-CreER tdTomato, pancreas; intravenous, dose not given, 2.5 min, 84 d after tamoxifen).
For N[C@H](C(=O)N1CCCC1)C1CCN(c2nccc3c(-c4ncc(Cl)cc4Cl)cccc23)CC1, the inhibition was 14% (CHRM2 (Homo sapiens, UniProt P08172); functional response, antagonist; 10 µM).
For CC(C)[C@H]1NC(=O)C[C@H]2/C=C/CCSSC[C@@H](NC1=O)C(=O)N[C@H](Cc1cccc3ccccc13)C(=O)NCC(=O)O2, the inhibition was 2.3% (EPHA7 (Homo sapiens, UniProt Q15375); enzyme activity, inhibitor; 10 µM).
CC(C)CC(O)(CC(C)C)c1cn(C(=O)N2CCCC2)nn1 — result for “ratio of ratios”: 1.4 (S-formylglutathione hydrolase (Esd, Mus musculus, UniProt Q9R0P3); enzyme activity, inhibitor, refers to: Esd; mouse, brain; i.p., 0.8 mg/kg, 4 h, protein level; relative to: vehicle).
The remaining binding of Nc1ccc(/C=C/C(=O)N2CCc3c(oc4c(-c5ccc(F)cc5)cc(-c5ccc(C(=O)N6CCC(F)(F)CC6)cn5)cc34)C2)cn1 is reported as 91% (PIM3 (Homo sapiens, UniProt Q86V86); binding, competition with immobilised ligand; 1 µM).
With COc1ccccc1-c1n[nH]c2nc(N[C@H]3CC[C@H](NS(=O)(=O)CC(C)C)CC3)ncc12 the relative abundance was 0.93 (bead binding, competition bead pull-down, refers to: LINJ.35.1070; Leishmania donovani extract; 10 µM; relative to: vehicle).
With CS(C)(=O)=Nc1ccc(-c2ccc(-c3nc4cc(O[C@@H]5CO[C@H]6[C@@H]5OC[C@H]6O)[nH]c4cc3F)cc2)cc1 the inhibition was 4% (FGFR1 (Homo sapiens, UniProt P11362, V561M); enzyme activity, inhibitor; 10 µM).
The binding stoichiometry of Cc1sc2c(c1C)C(c1ccc(Cl)cc1)=N[C@@H](CC(=O)OC(C)(C)C)c1nnc(C)n1-2 is reported as 1.07 ± 0.002 (Bromodomain-containing protein 3, BD1 (BRD3, Homo sapiens, UniProt Q15059); isothermal titration calorimetry; concentration not given, 15 °C, reverse titration).
COc1ccccc1-c1n[nH]c2nc(NC3CCN(C(=O)Cc4ccc(F)cc4F)CC3)ncc12 has a relative abundance of 0.96 (bead binding, competition bead pull-down, refers to: LINJ.25.2450; Leishmania donovani axenic amastigote extract; 10 µM; relative to: vehicle).
Under “serum LDH activity”, O=C1NC2(CC2)COc2ncc(F)cc2[C@H]2COCCN2c2ccn3ncc1c3n2 is recorded as 880 ± 310 U/L (Sprague-Dawley rat, male, serum; oral, 20 mg/kg/day, end of treatment, 4-week subacute toxicity).

For quick reference, copied from above:
With CS(C)(=O)=Nc1ccc(-c2ccc(-c3nc4cc(O[C@@H]5CO[C@H]6[C@@H]5OC[C@H]6O)[nH]c4cc3F)cc2)cc1 the inhibition was 4% (FGFR1 (Homo sapiens, UniProt P11362, V561M); enzyme activity, inhibitor; 10 µM).
